Assay results of several laboratories.
Parts stem from different laboratories: compare values within a part only.

Series 1
Target: RING finger protein unkempt homolog, zinc fingers 1-6, SBP tag (UNK, Homo sapiens, UniProt Q9C0B0, residues 30-357)
Sequence of UniProt Q9C0B0 (30-357, looked up): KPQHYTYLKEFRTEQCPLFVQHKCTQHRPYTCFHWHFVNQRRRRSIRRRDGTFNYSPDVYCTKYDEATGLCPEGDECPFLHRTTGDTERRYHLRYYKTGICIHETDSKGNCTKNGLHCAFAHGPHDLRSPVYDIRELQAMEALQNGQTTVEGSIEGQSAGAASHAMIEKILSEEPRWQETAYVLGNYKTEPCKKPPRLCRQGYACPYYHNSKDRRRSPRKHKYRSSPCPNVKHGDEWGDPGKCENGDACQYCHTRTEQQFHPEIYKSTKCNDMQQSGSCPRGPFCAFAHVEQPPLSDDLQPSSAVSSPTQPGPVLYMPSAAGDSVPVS
Method: RNA Bind-n-Seq
Molecule type: RNA
Sample: in vitro
Concentration: 100 nM
Setting: RNA with constant flanks, vertebrate orthologous sites, ends assumed
Reference: input RNA pool
Direction: higher = stronger binding
Shared flanks, not repeated: GGGAGUUCUACAGUCCGACGAUC … CAACAGAGGAUUGAGCAUCA
Oligonucleotide	bound/input enrichment [ratio]
CUUUCUCCCCCACUGAGGGGGAGUGUGGGGAGCCCAGGAAGACCCUCAGCUGUUCUAAUCCAGUAUUUUUUUCUUUUUUAAAAUUACUGUAUUUAUUAUGACGAUGGUGACUCCCCAGUG	0.274
ACAGGAGCAGCAUAGGCUGUUUGAGCUUUGGGGAAAUGAACUUUGCUUUUUAUAUUUAACUAGGAUACUUUUAUAUGAUGGGUGCUUUGAGUGUGAAUGCAGCAGGCUCUCUUGUUUCCG	1.98
UGCUGUUAAUGCACUGUAUACCAGGAAUUGUCUGAACUUAGUGUAAUCUAGGAGAUUUUAUAGUUUUAUUUUAAUGAAGUAUGAAUUGAAACAAAGCUGUUAGGAGUAUGUAGUCUUCUA	0.944
UUACAGUCAUUGAUGGACUCUAUUUUUUUAUUAUUACUUGGACCUUGGUCGUUUUUAUACUAGCAACGAAAAAUGUCUUGUUUUAAUUUGUUUUUUGGGGGUAUGGGGUGGGAAGUGUCU	0.63
GGGCCGCUUCGACGUGAAGAUCGAAGUUAAGAGCUGAUCGCGAGCACAGAUCUUUCCCACUAGCCAUUUAAGAAGUUAAAGAUACAAAAACCUACUAGUCUUGAACAAACUGUCAUACGU	1.76
UCAUCUGACUGGAUGAAGACUGUUUCCAAGUUAUAACCAAACAAAUAGCUCCAUGGACUUUAGGAAUUAUAUGAUGAGAAAUGAAAAUUUGGAACCAUUGCCCAAAAACUGGGAGAUGGC	0.786
ACUGUUGUUAAGCACUGUGUUCCAGACCGUGUCUGACUUAGUGUAACCUAGGAGAUUUUAUAGUUUUAUUUUAAUGAAACCCUGAUUGACGCACAGCAGUGGGGAGAACAGCAUCUUUUA	2.03
CCUACAAUAAUGAAAACCUACAGGAAUUUUUUUAUUUUUCAUUUUCCCCUUAGGCAUAUUUAGUAUUUUUUCCCCAGGCAGAUCAUUCUGAGUGUGCGAGUGUGUGUGCACAUGUUACAA	3.29
UUCAUUGUACUGCAGCCAUCAUCCUCCAUCUAAGCUACGACAGUAGUUACUAAUCUCUGCUGAGAGAAUCAUGUACUAUUAAUACUUUUAUACCAUCUGUUUGGUCAGAUGCCUGAAAUG	0.837
AAGUAUCCCCGUUUACUGUGUUGAGUUGGCACUGUACAGAAAUUAACAGCCAUAUUGGUCUAGAAAUGUUGAACUUAAGUUUUUUCCAUUUGUACAGGGGUAACGCACUGUAUUAAAUAU	0.349
AUUGGAUGUAGUGUAAAAUUAUCCAAGGCAGUGACUUCAGCUUUAUAUAUAUAUAAAAUAUAGUUAGUUUUAAAGUUACUGACAUUUAUUUAAACUUUUAGAUUGGAUUGUUUGCUAUUG	0.568

Series 2
Target: Sal-like protein 4, full length isoform B (SALL4, Homo sapiens, UniProt Q9UJQ4-2, residues 1-616)
Method: universal PBM
Molecule type: double-stranded DNA, one strand shown
Sample: in vitro
Concentration: not given
Setting: 8-mer, flanks averaged, mean of replicates
Direction: higher = stronger binding
Residues (chain): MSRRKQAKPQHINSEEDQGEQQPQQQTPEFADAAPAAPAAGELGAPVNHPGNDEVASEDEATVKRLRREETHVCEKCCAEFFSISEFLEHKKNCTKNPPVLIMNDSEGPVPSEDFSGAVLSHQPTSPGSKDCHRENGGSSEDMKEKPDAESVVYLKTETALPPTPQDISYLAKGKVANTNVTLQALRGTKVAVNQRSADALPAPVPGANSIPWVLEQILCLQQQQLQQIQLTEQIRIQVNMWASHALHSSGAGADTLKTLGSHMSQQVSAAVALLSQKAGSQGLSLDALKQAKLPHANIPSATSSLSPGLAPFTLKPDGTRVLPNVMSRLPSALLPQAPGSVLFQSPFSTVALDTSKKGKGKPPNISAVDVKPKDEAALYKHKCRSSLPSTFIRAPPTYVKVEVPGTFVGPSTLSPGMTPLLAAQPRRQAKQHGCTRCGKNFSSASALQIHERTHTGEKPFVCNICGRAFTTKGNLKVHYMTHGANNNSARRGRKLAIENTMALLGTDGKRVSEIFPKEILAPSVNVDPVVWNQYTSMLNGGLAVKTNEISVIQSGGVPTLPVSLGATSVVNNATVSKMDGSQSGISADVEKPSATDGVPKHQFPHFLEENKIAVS
Oligonucleotide	E-score
ATAGCCCA	0.0702
CACCGTGC	-0.191
CTGAAATC	0.0637
TCGAAGAA	-0.0696
CGCTTTAG	-0.128
CTCACAGA	0.0687
CAATGATC	0.0448
CCGAACCG	-0.334
ACAGGTAG	-0.0275
ATGTGCAA	0.131

Series 3
Target: Prothrombin, mature alpha-thrombin (F2, Homo sapiens, UniProt P00734)
Method: aptamer microarray, sandwich
Molecule type: DNA with 2'F-ANA
Sample: in vitro
Concentration: 200 nM
Setting: whole 15-mer aptamer, many near background
Added: Cy3 exosite-II aptamer, 400 nM
Direction: higher = stronger binding
Oligonucleotide: GGTTGGTGTGGTTGG
Modification	mean fluorescence intensity [a.u.]
2'F-ANA at 2 6 8 14 15	134
2'F-ANA at 1 3 4 5 6 8 11 13 14 15	88.2
2'F-ANA at 2 6 8 12 14 15	177
2'F-ANA at 1 2 4 6 9 11 13	74.2
2'F-ANA at 2 3 6 8 10 11 14 15	222
2'F-ANA at 2 3 10 12 14 15	317
2'F-ANA at 1 3 6 8 9 10 11 12 13	106
2'F-ANA at 1 5 6 7 8 11 12 13 14	67.6
2'F-ANA at 3 4 6 10 11 12	289
2'F-ANA at 1 3 4 8 11 12 15	382
2'F-ANA at 1 2 6 9 10 15	69.5
2'F-ANA at 2 4 5 9 11 14	43.9

Single results of other studies
Substance	target	test	test system	conditions	scale	measurement	result
PhoQ, residues 284 288 289 292 302 303 TAVSDG	PhoP, residues 12 14 15 18 19 VQALL (Escherichia coli, UniProt P23836)	Sort-seq, refers to: YFP reporter	E. coli	PhoQ-PhoP variant library, added: 10 µM Mg2+	reference: high Mg2+ state, higher = stronger signaling	fold induction	8.03
